Measured values from different studies.
Each line is one published result; not all experiments were run side by side. Several values in a cell are separate wells, animals, samples, runs or records. Numbers after ± are the reported error.
pufM QA site: Reaction center protein M chain, QA site (pufM, Cereibacter sphaeroides, UniProt P0C0Y9)
ISOC2: Isochorismatase domain-containing protein 2 (ISOC2, Homo sapiens, UniProt Q96AB3)
UniProt Q16774, sequence (whole entry, looked up): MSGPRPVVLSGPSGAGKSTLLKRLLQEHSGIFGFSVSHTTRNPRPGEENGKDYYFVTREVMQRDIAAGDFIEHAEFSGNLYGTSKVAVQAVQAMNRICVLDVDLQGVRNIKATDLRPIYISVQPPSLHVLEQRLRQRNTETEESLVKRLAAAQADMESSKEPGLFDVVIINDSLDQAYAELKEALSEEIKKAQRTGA
UniProt Q96AB3, sequence (whole entry, looked up): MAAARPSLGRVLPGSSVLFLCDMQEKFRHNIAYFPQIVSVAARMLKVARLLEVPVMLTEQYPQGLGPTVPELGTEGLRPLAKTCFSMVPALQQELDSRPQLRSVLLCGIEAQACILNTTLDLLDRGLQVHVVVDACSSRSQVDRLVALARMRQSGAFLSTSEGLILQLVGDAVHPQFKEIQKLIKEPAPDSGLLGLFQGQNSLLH
UniProt P32099, sequence (whole entry, looked up): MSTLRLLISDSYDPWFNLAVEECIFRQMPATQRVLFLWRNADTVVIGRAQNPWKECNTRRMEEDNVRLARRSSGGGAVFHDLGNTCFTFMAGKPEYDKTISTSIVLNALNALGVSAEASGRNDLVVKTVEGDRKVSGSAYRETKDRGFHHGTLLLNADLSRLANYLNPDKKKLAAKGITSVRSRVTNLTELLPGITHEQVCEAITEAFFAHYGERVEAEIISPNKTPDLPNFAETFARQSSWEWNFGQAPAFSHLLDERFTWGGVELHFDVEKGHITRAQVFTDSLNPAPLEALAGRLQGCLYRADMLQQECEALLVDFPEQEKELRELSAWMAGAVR
UniProt P40337, sequence (whole entry, looked up): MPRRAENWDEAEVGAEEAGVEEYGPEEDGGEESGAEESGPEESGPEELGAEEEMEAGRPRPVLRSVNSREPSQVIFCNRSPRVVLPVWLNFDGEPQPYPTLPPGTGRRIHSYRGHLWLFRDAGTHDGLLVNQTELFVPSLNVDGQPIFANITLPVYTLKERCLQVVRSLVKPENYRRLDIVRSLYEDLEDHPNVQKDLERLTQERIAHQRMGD
UniProt Q93009, sequence (whole entry, unmodified, looked up): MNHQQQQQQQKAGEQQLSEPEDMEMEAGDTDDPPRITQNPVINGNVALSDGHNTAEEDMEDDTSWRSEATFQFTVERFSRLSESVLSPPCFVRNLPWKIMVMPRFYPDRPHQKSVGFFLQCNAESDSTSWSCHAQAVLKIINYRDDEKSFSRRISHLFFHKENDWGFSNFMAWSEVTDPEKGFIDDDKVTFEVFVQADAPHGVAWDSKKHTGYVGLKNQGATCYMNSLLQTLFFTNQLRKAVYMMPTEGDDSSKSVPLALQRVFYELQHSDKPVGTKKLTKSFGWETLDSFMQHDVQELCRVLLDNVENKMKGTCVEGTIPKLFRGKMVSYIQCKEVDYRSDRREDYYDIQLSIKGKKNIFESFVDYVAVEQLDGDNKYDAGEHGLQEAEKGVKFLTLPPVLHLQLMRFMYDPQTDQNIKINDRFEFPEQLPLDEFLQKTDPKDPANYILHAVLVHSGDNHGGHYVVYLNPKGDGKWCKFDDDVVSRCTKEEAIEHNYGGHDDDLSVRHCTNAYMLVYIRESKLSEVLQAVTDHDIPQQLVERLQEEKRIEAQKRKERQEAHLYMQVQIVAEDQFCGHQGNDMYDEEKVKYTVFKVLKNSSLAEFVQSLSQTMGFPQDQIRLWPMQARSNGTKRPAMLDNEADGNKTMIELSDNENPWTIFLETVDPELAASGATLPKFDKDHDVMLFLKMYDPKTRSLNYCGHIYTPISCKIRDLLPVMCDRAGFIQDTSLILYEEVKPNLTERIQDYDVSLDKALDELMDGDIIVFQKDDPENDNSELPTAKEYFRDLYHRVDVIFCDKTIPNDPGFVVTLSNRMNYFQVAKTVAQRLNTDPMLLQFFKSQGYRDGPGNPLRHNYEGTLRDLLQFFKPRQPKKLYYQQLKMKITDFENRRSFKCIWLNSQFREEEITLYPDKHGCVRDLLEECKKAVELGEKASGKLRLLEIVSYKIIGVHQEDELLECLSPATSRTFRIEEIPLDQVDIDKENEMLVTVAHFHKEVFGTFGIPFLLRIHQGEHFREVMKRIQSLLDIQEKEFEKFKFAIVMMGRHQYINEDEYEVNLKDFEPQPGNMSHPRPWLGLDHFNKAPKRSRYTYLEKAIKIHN
UniProt P07451, sequence (whole entry, looked up): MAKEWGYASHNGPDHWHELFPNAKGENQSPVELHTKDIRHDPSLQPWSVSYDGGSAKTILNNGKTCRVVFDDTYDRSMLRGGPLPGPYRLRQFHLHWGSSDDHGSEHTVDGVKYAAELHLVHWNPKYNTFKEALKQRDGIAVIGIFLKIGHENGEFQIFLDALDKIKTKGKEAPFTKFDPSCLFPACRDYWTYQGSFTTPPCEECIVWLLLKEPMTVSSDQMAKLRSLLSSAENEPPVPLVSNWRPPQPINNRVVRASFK
UniProt P00370, sequence (whole entry, looked up): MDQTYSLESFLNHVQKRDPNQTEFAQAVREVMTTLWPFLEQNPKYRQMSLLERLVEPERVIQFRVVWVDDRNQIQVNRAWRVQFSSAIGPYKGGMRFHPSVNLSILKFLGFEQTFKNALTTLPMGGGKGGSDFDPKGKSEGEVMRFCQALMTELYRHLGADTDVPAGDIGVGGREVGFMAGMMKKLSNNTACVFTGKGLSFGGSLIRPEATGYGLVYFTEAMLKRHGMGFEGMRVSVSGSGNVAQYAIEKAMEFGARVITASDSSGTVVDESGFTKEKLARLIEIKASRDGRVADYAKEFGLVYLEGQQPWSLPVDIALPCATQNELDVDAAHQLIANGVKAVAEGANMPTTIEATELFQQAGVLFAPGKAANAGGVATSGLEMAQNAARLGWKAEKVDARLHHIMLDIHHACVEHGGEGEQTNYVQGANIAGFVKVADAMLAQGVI
UniProt P0AGE0, sequence (whole entry, looked up): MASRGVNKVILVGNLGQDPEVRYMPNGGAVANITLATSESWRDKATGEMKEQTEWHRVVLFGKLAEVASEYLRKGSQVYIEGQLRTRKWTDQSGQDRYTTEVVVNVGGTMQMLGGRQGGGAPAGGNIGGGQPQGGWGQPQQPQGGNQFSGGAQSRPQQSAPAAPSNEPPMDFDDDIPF
UniProt Q9BTZ2, sequence (whole entry, looked up): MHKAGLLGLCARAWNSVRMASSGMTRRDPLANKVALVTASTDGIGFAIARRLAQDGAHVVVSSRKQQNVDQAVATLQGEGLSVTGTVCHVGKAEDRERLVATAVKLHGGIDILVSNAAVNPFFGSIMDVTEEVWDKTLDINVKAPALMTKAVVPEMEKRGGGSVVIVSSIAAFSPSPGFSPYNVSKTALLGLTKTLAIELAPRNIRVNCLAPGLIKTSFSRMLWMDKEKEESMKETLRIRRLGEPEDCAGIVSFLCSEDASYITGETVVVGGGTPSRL
UniProt Q8N1Q1, sequence (whole entry, looked up): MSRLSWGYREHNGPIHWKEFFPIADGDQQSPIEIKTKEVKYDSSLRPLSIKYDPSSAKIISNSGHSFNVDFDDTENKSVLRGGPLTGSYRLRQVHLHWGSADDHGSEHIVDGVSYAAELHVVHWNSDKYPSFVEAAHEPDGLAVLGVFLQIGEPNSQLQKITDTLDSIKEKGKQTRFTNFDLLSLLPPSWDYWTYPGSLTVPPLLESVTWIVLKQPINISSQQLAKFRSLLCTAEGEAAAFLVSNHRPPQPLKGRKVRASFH
UniProt P70536, sequence (whole entry, looked up): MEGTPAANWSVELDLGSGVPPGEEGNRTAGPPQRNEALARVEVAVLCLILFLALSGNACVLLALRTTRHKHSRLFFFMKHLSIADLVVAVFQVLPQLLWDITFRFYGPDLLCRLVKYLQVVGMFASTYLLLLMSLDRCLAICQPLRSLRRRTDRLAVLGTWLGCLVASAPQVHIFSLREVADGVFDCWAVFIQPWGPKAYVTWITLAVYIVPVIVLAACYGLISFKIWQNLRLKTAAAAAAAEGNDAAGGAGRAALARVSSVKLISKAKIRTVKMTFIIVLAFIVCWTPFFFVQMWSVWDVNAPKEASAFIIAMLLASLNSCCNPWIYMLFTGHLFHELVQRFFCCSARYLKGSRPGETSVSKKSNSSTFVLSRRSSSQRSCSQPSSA
UniProt O60760, sequence (whole entry, looked up): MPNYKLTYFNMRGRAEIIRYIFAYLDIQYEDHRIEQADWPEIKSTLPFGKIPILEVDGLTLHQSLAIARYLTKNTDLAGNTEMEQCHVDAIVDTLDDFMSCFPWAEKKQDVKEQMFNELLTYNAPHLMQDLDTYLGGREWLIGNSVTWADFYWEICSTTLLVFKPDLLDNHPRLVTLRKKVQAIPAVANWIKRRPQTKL
UniProt P31641, sequence (whole entry, unmodified, looked up): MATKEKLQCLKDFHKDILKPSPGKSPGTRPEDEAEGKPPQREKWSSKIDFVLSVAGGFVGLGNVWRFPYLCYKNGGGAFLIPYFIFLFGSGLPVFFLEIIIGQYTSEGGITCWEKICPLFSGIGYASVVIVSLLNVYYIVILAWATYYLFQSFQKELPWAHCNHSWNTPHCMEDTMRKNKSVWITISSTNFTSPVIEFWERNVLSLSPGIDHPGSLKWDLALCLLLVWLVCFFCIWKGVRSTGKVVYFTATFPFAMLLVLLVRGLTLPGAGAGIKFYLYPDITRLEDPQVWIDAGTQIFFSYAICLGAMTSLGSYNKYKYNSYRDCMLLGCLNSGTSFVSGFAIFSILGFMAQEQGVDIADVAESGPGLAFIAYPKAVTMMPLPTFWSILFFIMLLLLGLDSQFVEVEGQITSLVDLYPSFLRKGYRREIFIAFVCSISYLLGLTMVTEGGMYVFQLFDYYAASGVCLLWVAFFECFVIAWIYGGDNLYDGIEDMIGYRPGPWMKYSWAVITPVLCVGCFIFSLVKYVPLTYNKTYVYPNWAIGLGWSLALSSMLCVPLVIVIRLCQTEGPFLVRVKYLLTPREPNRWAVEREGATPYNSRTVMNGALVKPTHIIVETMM

Structure (SMILES)	target	assay	test system	conditions	Kd
CCCN1CCN(c2ccc(-c3cncc(Cl)c3N3CCC4(CCNC4=O)CC3)cc2)CC1	Dehydrogenase/reductase SDR family member 4 (DHRS4, Homo sapiens, UniProt Q9BTZ2)	SILAC displacement	LS174T-L5 cell lysate	–	17.8 µM
CC(C)CCC[C@@H](C)[C@H]1CC[C@H]2[C@@H]3CCC4=CC(=O)CC[C@]4(C)[C@H]3CC[C@]12C	CYP125 ancestral reconstruction	UV-Vis difference spectra	–	Morrison fit, fitted enzyme	0.04 ± 0.01 µM
NS(=O)(=O)c1ccccc1	Carbonic anhydrase 3 (CA3, Homo sapiens, UniProt P07451)	thermal shift	–	pH 7.0, 25 °C	200 µM
CCCCCCCC/C=C\CCCCCCCC(=O)OC[C@H](COP(=O)(O)OCC(O)CO)OC(=O)CCCCCCC/C=C\CCCCCCCC (mixture of isomers)	Single-stranded DNA-binding protein (ssb, Escherichia coli, UniProt P0AGE0)	binding, tryptophan fluorescence quenching	Escherichia coli, 100% in DOPG liposomes	37 °C	0.78 ± 0.25 µM
CC[C@H](CC[C@@H](C)[C@H]1CC[C@H]2[C@@H]3CCC4=CC(=O)CC[C@]4(C)[C@H]3CC[C@]12C)C(C)C	CYP125 ancestral reconstruction	UV-Vis difference spectra	–	Morrison fit, fixed enzyme	0.4 ± 0.13 µM
NC(=O)CCCCC1CCSS1 (racemic)	lplA (Escherichia coli, UniProt P32099)	binding, isothermal titration calorimetry	–	–	27.7 µM
CC1=C(C)C(=O)c2ccccc2C1=O	pufM QA site	QA site binding	LDAO detergent solution	pH 7.8, 298 K, together with: 1 µM reaction centres	0.03 µM
COc1cc2c3c(n(CCCN4CCCC4)c(=O)c2cc1OC)-c1nc2c(cc1C3=O)OCO2	MYC G-quadruplex DNA	binding, fluorescence	–	pH 7.0, 20 °C, together with: K+ 100 mM	0.055 µM
O=C(CCCCCCNC(=O)c1cnc(N(c2ccccc2)c2ccccc2Cl)nc1)NO	ISOC2	inhibitor, competition pulldown	SW620 and MV4-11 lysate	1 h	0.391 µM
C=C1CC[C@H](O)C/C1=C/C=C1\CCC[C@]2(C)[C@@H]([C@H](C)CCCC(C)C)CC[C@@H]12	CYP125 ancestral reconstruction	UV-Vis difference spectra	–	Morrison fit, fixed enzyme	0.8 ± 0.2 µM
Cn1cc(CNCC2CCN(c3ncc(C(=O)NO)cn3)CC2)c2ccccc21	ISOC2	inhibitor, competition pulldown	SW620 and MV4-11 lysate	1 h	> 30.2 µM
CC1=CC(=O)C(C)=C(C)C1=O	pufM QA site	QA site binding	LDAO detergent solution	pH 7.8, 298 K, together with: 1 µM reaction centres	16 µM
CCCC(CCC)C(=O)O	ISOC2	inhibitor, competition pulldown	SW620 and MV4-11 lysate	1 h	> 3020 µM
Nc1nc(-c2ccc(Cl)c(S(N)(=O)=O)c2)cs1	Carbonic anhydrase 13 (CA13, Homo sapiens, UniProt Q8N1Q1)	thermal shift	–	pH 7.0, 25 °C	0.1 µM
CCCCCCCCCCCCCCCC(=O)SCCNC(=O)CCNC(=O)C(O)C(C)(C)COP(=O)(O)OP(=O)(O)OCC1OC(n2cnc3c(N)ncnc32)C(O)C1OP(=O)(O)O (stereo not shown)	Mitochondrial dynamics protein MIEF1 (MIEF1, Homo sapiens, UniProt Q9NQG6)	binding, MANT-ADP competition	–	–	< 5 µM
CC(C)[C@H](C)CC[C@@H](C)[C@H]1CC[C@H]2[C@@H]3CC=C4C[C@@H](O)CC[C@]4(C)[C@H]3CC[C@]12C	CYP125 ancestral reconstruction	UV-Vis difference spectra	–	Morrison fit, fixed enzyme	2.3 ± 1.2 µM
Nc1ncnc2c1ncn2[C@@H]1O[C@H](COP(=O)(O)OP(=O)(O)OC[C@H]2OC(O)[C@H](O)[C@@H]2O)[C@@H](O)[C@H]1O (stereo partly shown)	Protein SFI1 homolog (SFI1, Homo sapiens, UniProt A8K8P3)	–	–	–	1.91 µM
Nc1ncnc2c1ncn2[C@@H]1O[C@H](COP(=O)(O)OP(=O)(O)O)[C@@H](O)[C@H]1O	GUK1 (Homo sapiens, UniProt Q16774)	ITC	–	together with: ATPγS 1 mM	14.2 µM and 10.2 µM and 10.1 µM
COc1ccc2c(c1OC)CN1CCc3cc4c(cc3C1=C2)OCO4	Hematopoietic prostaglandin D synthase (HPGDS, Homo sapiens, UniProt O60760)	binding, localised surface plasmon resonance	–	immobilised target	3.2 ± 0.74 µM
C=CC(=O)N1CCN(c2nc(OC[C@@H]3CCCN3C)nc3c(F)c(-c4nc(N)cc(C)c4C(F)(F)F)c(Cl)cc23)[C@@H](C)C1	GTPase KRas, GDP-bound (KRAS, Homo sapiens, UniProt P01116, G13D)	binding, surface plasmon resonance	–	–	0.715 ± 0.05 µM

Structure (SMILES)	target	assay	test system	conditions	Kd
COc1ccc(-c2nc(N3CCOCC3)c3sc(CN(C)c4ncc(C(=O)NO)cn4)cc3n2)cn1	ISOC2	inhibitor, competition pulldown	SW620 and MV4-11 lysate	1 h	> 30.2 µM
COc1cc2c3c(n(CCCn4ccnc4)c(=O)c2cc1OC)-c1cc2c(cc1C3=O)OCO2	MYC G-quadruplex DNA	binding, fluorescence	–	pH 7.0, 20 °C, together with: K+ 100 mM	0.069 µM
CC1=CC(=O)C=C(C)C1=O	pufM QA site	QA site binding	LDAO detergent solution	pH 7.8, 298 K, together with: 1 µM reaction centres	88 µM
CC[C@H](/C=C/[C@@H](C)[C@H]1CC[C@H]2[C@@H]3CC=C4C[C@@H](O)CC[C@]4(C)[C@H]3CC[C@]12C)C(C)C	CYP125 ancestral reconstruction	UV-Vis difference spectra	–	Michaelis-Menten fit	1.5 ± 0.7 µM
O=C(/C=C/c1cccc(S(=O)(=O)Nc2ccccc2)c1)NO	ISOC2	inhibitor, competition pulldown	SW620 and MV4-11 lysate	1 h	> 30.2 µM
COc1cc2c3c(n(CCCn4ccnc4)c(=O)c2cc1OC)-c1nc2c(cc1C3=O)OCO2	MYC G-quadruplex DNA	binding, fluorescence	–	pH 7.0, 20 °C, together with: K+ 100 mM	0.147 µM
NCCS(=O)(=O)O	Sodium- and chloride-dependent taurine transporter (SLC6A6, Homo sapiens, UniProt P31641, Y138A)	microscale thermophoresis	–	Y138A mutant	no binding
O=C(C[C@@H](C(F)F)n1ccc(F)n1)N1CCC(O)(Cn2cnc3c(cnn3-c3ccc(F)cc3)c2=O)CC1	Ubiquitin carboxyl-terminal hydrolase 7 (USP7, Homo sapiens, UniProt Q93009, V517G)	isothermal titration calorimetry	–	USP7 V517G	0.052 ± 0.014 µM
COc1cc2c3c(n(CCCN4CCC[C@H]4C(N)=O)c(=O)c2cc1OC)-c1nc2c(cc1C3=O)OCO2	MYC G-quadruplex DNA	binding, fluorescence	–	pH 7.0, 20 °C, together with: K+ 100 mM	0.059 µM
Nc1nc2c(ncn2[C@@H]2O[C@H](COP(=O)(O)OP(=O)(O)O)[C@@H](OP(=O)(O)OP(=O)(O)O)[C@H]2O)c(=O)[nH]1	NADP-specific glutamate dehydrogenase (gdhA, Escherichia coli, UniProt P00370)	binding, ITC sequential two-site fit	–	second weak site	29 ± 2 µM
Nc1ncnc2c1ncn2[C@@H]1O[C@H](COP(=O)(O)OP(=O)(O)OP(=O)(O)O)[C@@H](O)[C@H]1O	Creatine kinase U-type, mitochondrial (CKMT1A, Homo sapiens, UniProt P12532, D359N)	microscale thermophoresis	–	pH 8.5, D321N mutant, no substrate	15 ± 6 µM
N#Cc1c(N)sc2c1CCCC2	GTPase KRas (KRAS, Homo sapiens, UniProt P01116, G12V/S39C)	HSQC NMR titration	–	–	101 µM and 106 µM
CC1=CC(=O)c2ccccc2C1=O	pufM QA site	QA site binding	LDAO detergent solution	pH 7.8, 298 K, together with: 1 µM reaction centres	1.4 µM
Nc1nc2c(ncn2[C@@H]2O[C@@H]3CO[P@](=O)(O)O[C@H]4[C@@H](O)[C@H](n5cnc6c(=O)[nH]c(N)nc65)O[C@@H]4CO[P@](=O)(O)O[C@H]3[C@H]2O)c(=O)[nH]1	uncharacterized protein (Treponema denticola, UniProt Q73MV1)	–	–	–	284 ± 97 µM
Cc1[nH]c2ccccc2c1CCNCc1ccc(/C=C/C(=O)NO)cc1	ISOC2	inhibitor, competition pulldown	SW620 and MV4-11 lysate	1 h	> 30.2 µM
CC[C@H](C)[C@@H]1NC(=O)[C@H](Cc2ccc(O)cc2)NC(=O)[C@@H](N)CSSC[C@@H](C(=O)N2CCC[C@H]2C(=O)N[C@@H](CC(C)C)C(=O)NCC(N)=O)NC(=O)[C@H](CC(N)=O)NC(=O)[C@H](CCC(N)=O)NC1=O	Oxytocin receptor (Rattus norvegicus, UniProt P70536)	binding, saturation Scatchard	rat isolated mammary cells	1 h, pH 7.6, 20 °C	0.005 µM
O=C(NO)c1cnc(NC2(c3ccccc3)CC2)nc1	ISOC2	inhibitor, competition pulldown	SW620 and MV4-11 lysate	1 h	> 30.2 µM
CC(=O)N[C@H](C(=O)N1C[C@H](O)C[C@H]1C(=O)NCc1ccc(-c2scnc2C)cc1)C(C)(C)SCCCCCCNC(=O)C[C@@H]1N=C(c2ccc(Cl)cc2)c2c(sc(C)c2C)-n2c(C)nnc21	von Hippel-Lindau disease tumor suppressor, with elongin B/C (VHL, Homo sapiens, UniProt P40337)	binary binding, ITC	–	25 °C, VCB titrated into compound	0.335 ± 0.03 µM
CCCCc1nc2cc(/C=C/C(=O)NO)ccc2n1CCN(CC)CC	ISOC2	inhibitor, competition pulldown	SW620 and MV4-11 lysate	1 h	> 30.2 µM
COc1cc2c3c(n(CCCN4CCOCC4)c(=O)c2cc1OC)-c1cc2c(cc1C3=O)OCO2	MYC G-quadruplex DNA	binding, fluorescence	–	pH 7.0, 20 °C, together with: K+ 100 mM	0.2 µM

For quick reference, copied from above:
Structure (SMILES)	target	assay	test system	conditions	Kd
N#Cc1c(N)sc2c1CCCC2	GTPase KRas (KRAS, Homo sapiens, UniProt P01116, G12V/S39C)	HSQC NMR titration	–	–	101 µM and 106 µM
CC1=CC(=O)c2ccccc2C1=O	pufM QA site	QA site binding	LDAO detergent solution	pH 7.8, 298 K, together with: 1 µM reaction centres	1.4 µM
Nc1nc2c(ncn2[C@@H]2O[C@@H]3CO[P@](=O)(O)O[C@H]4[C@@H](O)[C@H](n5cnc6c(=O)[nH]c(N)nc65)O[C@@H]4CO[P@](=O)(O)O[C@H]3[C@H]2O)c(=O)[nH]1	uncharacterized protein (Treponema denticola, UniProt Q73MV1)	–	–	–	284 ± 97 µM
Cc1[nH]c2ccccc2c1CCNCc1ccc(/C=C/C(=O)NO)cc1	ISOC2	inhibitor, competition pulldown	SW620 and MV4-11 lysate	1 h	> 30.2 µM
CC[C@H](C)[C@@H]1NC(=O)[C@H](Cc2ccc(O)cc2)NC(=O)[C@@H](N)CSSC[C@@H](C(=O)N2CCC[C@H]2C(=O)N[C@@H](CC(C)C)C(=O)NCC(N)=O)NC(=O)[C@H](CC(N)=O)NC(=O)[C@H](CCC(N)=O)NC1=O	Oxytocin receptor (Rattus norvegicus, UniProt P70536)	binding, saturation Scatchard	rat isolated mammary cells	1 h, pH 7.6, 20 °C	0.005 µM
